Experimental data pooled from the literature.
Parts stem from different laboratories: compare values within a part only.

Set 1
Target: Histone acetyltransferase KAT6A, winged helix 1, GST fusion (KAT6A, Homo sapiens, UniProt Q92794, residues 1-85)
Technique: protein binding microarray
Form: double-stranded DNA, one strand shown
Sample: in vitro
Tested at: not given
Notes: 8-mer, flanks averaged, mean of 2 arrays, mostly near background
Baseline: not given
Direction: higher = stronger binding
Residues (chain): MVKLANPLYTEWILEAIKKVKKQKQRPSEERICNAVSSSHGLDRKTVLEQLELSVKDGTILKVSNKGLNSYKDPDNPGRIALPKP
`TAGTGCGA` has an E-score of -0.0468.
`CAGCTGCG` gave an E-score of 0.243.
With `ATCGTACC` the E-score was -0.0786.
The E-score of `GGGCCGGA` is reported as 0.126.
`AGGGCATC` has an E-score of -0.132.
For `GCGGATCA`, the E-score was 0.127.
For `TGGGCCAA`, the E-score was -0.197.
For `AAGAATCA`, the E-score was -0.219.
`CGACTCAA` has an E-score of -0.197.
`AGGGACCA` has an E-score of -0.0539.
`GGGAACTA` has an E-score of 0.0741.
The E-score of `CGTAAAAG` is reported as 0.171.
For `GAAGACCC`, the E-score was -0.0978.
For `AATCGTCC`, the E-score was 0.185.
The E-score of `ACACATAA` is reported as -0.187.
`GGGGTATA` has an E-score of -0.0828.
With `ATTGATAG` the E-score was -0.136.
For `GCGTGTCA`, the E-score was 0.174.
The E-score of `GATTGAAC` is reported as -0.0607.
The E-score of `GTATTGAC` is reported as 0.0624.
For `GAACTCGA`, the E-score was -0.153.
With `CCGTCGGC` the E-score was 0.493.
`CCTCCCAG` has an E-score of -0.214.

Set 2
Target: TAR DNA-binding protein 43, full length, His tag (TARDBP, Homo sapiens, UniProt Q13148, residues 1-414)
Technique: RNA Bind-n-Seq
Form: RNA
Sample: in vitro
Tested at: 20 nM
Notes: 6-mer, flanks averaged, single round
With: 150 mM KCl
Baseline: input library
Direction: higher = stronger binding
For `CUACUC`, “6-mer enrichment (R)” read 0.551.
`ACUUGG` — result for “6-mer enrichment (R)”: 0.901.
`UUUAGA`: “6-mer enrichment (R)” 0.62.
For `CGUACC`, “6-mer enrichment (R)” read 0.634.
For `GUUUCC`, “6-mer enrichment (R)” read 0.619.
Under “6-mer enrichment (R)”, `GCCGAU` is recorded as 0.832.
`CUCUGA`: “6-mer enrichment (R)” 0.589.
For `CUGAUC`, “6-mer enrichment (R)” read 0.586.
`AUUUGC` — result for “6-mer enrichment (R)”: 0.657.
`CGCUUC`: “6-mer enrichment (R)” 0.587.
`AAUGAG`: “6-mer enrichment (R)” 1.09.
Under “6-mer enrichment (R)”, `GUAUCU` is recorded as 0.603.
Under “6-mer enrichment (R)”, `UUUUAA` is recorded as 0.682.
For `GAUCGC`, “6-mer enrichment (R)” read 0.842.
`CGGAUA` — result for “6-mer enrichment (R)”: 0.792.
Under “6-mer enrichment (R)”, `GGCUCU` is recorded as 0.853.
`GGGGCU` — result for “6-mer enrichment (R)”: 3.75.
Under “6-mer enrichment (R)”, `UACAGG` is recorded as 1.04.
`GUAUGC` — result for “6-mer enrichment (R)”: 1.1.
`GACUGU`: “6-mer enrichment (R)” 0.901.
Under “6-mer enrichment (R)”, `UGUCGG` is recorded as 1.35.
`UCGGAC` — result for “6-mer enrichment (R)”: 0.858.
For `AACUCA`, “6-mer enrichment (R)” read 0.613.
For `UGAACC`, “6-mer enrichment (R)” read 0.668.
`GACUCG` — result for “6-mer enrichment (R)”: 0.873.

Set 3
Target: RING finger protein unkempt homolog, zinc fingers 1-6, GST-SBP tag (UNK, Homo sapiens, UniProt Q9C0B0, residues 30-357)
Sequence of UniProt Q9C0B0 (30-357, looked up): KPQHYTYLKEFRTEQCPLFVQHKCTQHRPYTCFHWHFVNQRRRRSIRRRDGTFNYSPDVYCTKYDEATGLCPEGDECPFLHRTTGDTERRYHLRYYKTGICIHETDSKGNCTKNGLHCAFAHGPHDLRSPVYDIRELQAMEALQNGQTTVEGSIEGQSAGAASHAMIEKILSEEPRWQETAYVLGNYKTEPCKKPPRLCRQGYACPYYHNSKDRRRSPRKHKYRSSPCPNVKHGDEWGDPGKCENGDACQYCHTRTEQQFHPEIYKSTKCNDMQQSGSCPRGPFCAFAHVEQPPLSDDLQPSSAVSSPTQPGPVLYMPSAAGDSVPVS
Technique: RNA Bind-n-Seq
Form: RNA
Sample: in vitro
Tested at: not given
Notes: RNA with constant flanks, ends assumed
Baseline: input RNA pool
Direction: higher = stronger binding
`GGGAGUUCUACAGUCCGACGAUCCUUGAUGAUGAUGAGUGUCCUUUACAAAUCUUCAGGGAAUGGCCAAGUGACAAAGGGAUUUCCGUCUUUCAGUUGAAGAGGAGGCCACCAGACCACAUCCCAAAGAAAACCAAGAAACACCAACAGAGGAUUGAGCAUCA` gave a bound/input enrichment of 0.229 ratio.
The bound/input enrichment of `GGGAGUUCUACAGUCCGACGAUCGCCAUGUUAGUAGAAAACACUAAGGAAGAAGUAAUUGUGAGGAGUAAAGACAAAGAGGAUUCCGUUUGUAGUGCAGCCCUUCAUAAUCCACAAGAGUCACCUGCGACCCUUACUAAAGUGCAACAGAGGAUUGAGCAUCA` is reported as 0.318 ratio.
`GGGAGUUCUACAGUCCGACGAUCAACGGCAGGAAGACCCUUACUACUGUCCAAGGGAUCGCUGAUGAUUACGAUAAAAAGAAACCCGUGAAGGCGUUUAAGAAAAAGUUUGCCUGCAAUGGUACUGUAAUUGAGCAUCCGGAACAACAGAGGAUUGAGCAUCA` has a bound/input enrichment of 0.141 ratio.
The bound/input enrichment of `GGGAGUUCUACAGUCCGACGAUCCCCUGUUCCGUUUUGGUUGAUGGGUGUUUGGGAGGGGGCUGCGGGGGAUACUUUUUUUUUCCGUUCUUCUUUACCCUUAAGGUCAGCCCAUCACAAAAACAGAAACCGUUAAAUACCCCCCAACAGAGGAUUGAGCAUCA` is reported as 0.288 ratio.
The bound/input enrichment of `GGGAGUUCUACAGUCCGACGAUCAAUUAUGUACAUCAAAGAUAUCCUAGAUGUAGAGACGAUGGUGUCUGGGAUAAAAGGCAGAGUCCGUUUCUCUCAUAGCAUAUAUUGGCAGAAAUGGUUCUGCAAGAUGCUCAAAGGCAUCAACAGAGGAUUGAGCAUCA` is reported as 0.376 ratio.
`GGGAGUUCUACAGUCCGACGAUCCUCUUUGAAUCAUUCAAGAGUUUUGAAGGUCUCUUUUAUUUUCUGGGGUCCAUUGUUAACUUCCGUCAGGACCCAGAUGUGCACUUUAAAUAUAUUCAGGCGGCUUGCAAGACUGGGCAACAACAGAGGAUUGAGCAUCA` has a bound/input enrichment of 0.623 ratio.
The bound/input enrichment of `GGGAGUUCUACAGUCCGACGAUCAACAAUGAUAUUAGUAGUCUGCCCUGCUCAUUGGGAAAUCUUCAUUUGAAAUUCCUGGCACCCGAAGGAAAUCCUCUAAGAACCAUUCGAAGAGAAAUUAUAGCUAAAGGAACUCAAGAACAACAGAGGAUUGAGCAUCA` is reported as 0.304 ratio.
`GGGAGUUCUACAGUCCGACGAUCAUCUCUUUUGGUUUUGAUAAUCUGAAGUGUUUUUUUCUCGUUUUGGCCUUCCAAACUGCAUUUGGUCCGGUGAAUUAAGAAAAAUAUUGCCAUCAAGAAUUACUUGUGUUUUCACAGAGACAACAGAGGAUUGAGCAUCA` gave a bound/input enrichment of 0.182 ratio.

Set 4
Target: RNA binding protein fox-1 homolog 2, RRM domain, GST-SBP tag (RBFOX2, Homo sapiens, UniProt O43251-10, residues 100-194)
Technique: RNA Bind-n-Seq
Form: RNA
Sample: in vitro
Tested at: 365 nM
Notes: natural RNA segment, single round, ends assumed
Baseline: no-protein control
Direction: higher = stronger binding
Under “RBNS enrichment (R)”, `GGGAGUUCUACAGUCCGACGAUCUGUUUGCCUUCGCAGCACCCAGCAUCCAAGGACGGACUUCAGGGGACACGUGUAGUGUGUUAAGAUGUGCUGAUGGAAACACUAUCUUCAAAACUAAAAAUCAGCCACAGUGGAAUUCUCGGGUGCCAA` is recorded as 0.408.
`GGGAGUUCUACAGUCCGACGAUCUGACAGUUAACAUUCUGUUGUUUAUUAUUGCCUUUCUCCACCUUAGAGAGCCAUAAAUAACUCUCUGGUGAAGUGAUUUGCUAUAAUGGGGGUGAGGAGUGGGGAGACUUUGGAAUUCUCGGGUGCCAA`: “RBNS enrichment (R)” 0.469.
`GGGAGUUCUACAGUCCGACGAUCAAUAAAGCUGUCUGACCCAGGAAAAAAGGAACUAUACAACAUAGUGGAGUCUUGUGUACUAAAGUGCUAUCCGCUGGGCCUUUGGGAUUGAAGCAGUAGAAAGCGAAAAGUGGAAUUCUCGGGUGCCAA`: “RBNS enrichment (R)” 0.48.
Under “RBNS enrichment (R)”, `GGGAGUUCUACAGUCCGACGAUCGCUACUCUCAUACAGGGGACCCGUAUUUUAAAAUCUCCAGACUUGCUUACAUCUAGAUUAUCCAGCACAAUCAUAAAGUGAAUGACAAACCCUUUGAAUGAAAUUGUGGCUGGAAUUCUCGGGUGCCAA` is recorded as 0.737.
`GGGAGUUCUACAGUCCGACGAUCCUGAUGCUCUGUUACUAGAAUUACAAGGACCUGAUUUUUUUGUUUCUUUGUUUUUUUUAAAAAAAACAAAAACAGAGGCCAGAACUAUUGUUUGAAAUUAGUAACAAUGCUGGAAUUCUCGGGUGCCAA`: “RBNS enrichment (R)” 0.442.
`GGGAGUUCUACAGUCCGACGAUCUGUAUAAAAUAAAGUGUAGUUUACAAAAAAAAGAAACGUAAAAAAAAAAAACUACAUGCAAAACUGUAGGUAAUGAAAAUGAUGUAUUUUUUUCAUCUUUUUUUGUUAACUGGAAUUCUCGGGUGCCAA`: “RBNS enrichment (R)” 1.07.
For `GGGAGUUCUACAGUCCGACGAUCGGAGUGGAAGUGGCCAGACCAUUUAGACGGACAGGGUCCUCACCCUACCCCUUUCCUGUGAGGCAGGGGUGGUGGUGGAGUUGCUGGAGGUAGAGGAGCUAUGUGGAGCAUGGAAUUCUCGGGUGCCAA`, “RBNS enrichment (R)” read 1.25.
For `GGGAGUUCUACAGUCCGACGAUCUAAAAUCUCUGAAGGAUCAUCUAUGUAUUCAAGUAAUUAUUUUUUAGAUAAUAACUGUCUUCUGGACUUGGUCUUGAAGUCUGUACAGAUUCAGCCUCAGUAGUAGCGAAUGGAAUUCUCGGGUGCCAA`, “RBNS enrichment (R)” read 0.439.

For quick reference, copied from above (set 4):
Under “RBNS enrichment (R)”, `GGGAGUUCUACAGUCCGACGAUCUGUUUGCCUUCGCAGCACCCAGCAUCCAAGGACGGACUUCAGGGGACACGUGUAGUGUGUUAAGAUGUGCUGAUGGAAACACUAUCUUCAAAACUAAAAAUCAGCCACAGUGGAAUUCUCGGGUGCCAA` is recorded as 0.408.
`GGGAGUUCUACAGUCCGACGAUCUGACAGUUAACAUUCUGUUGUUUAUUAUUGCCUUUCUCCACCUUAGAGAGCCAUAAAUAACUCUCUGGUGAAGUGAUUUGCUAUAAUGGGGGUGAGGAGUGGGGAGACUUUGGAAUUCUCGGGUGCCAA`: “RBNS enrichment (R)” 0.469.
`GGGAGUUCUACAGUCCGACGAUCAAUAAAGCUGUCUGACCCAGGAAAAAAGGAACUAUACAACAUAGUGGAGUCUUGUGUACUAAAGUGCUAUCCGCUGGGCCUUUGGGAUUGAAGCAGUAGAAAGCGAAAAGUGGAAUUCUCGGGUGCCAA`: “RBNS enrichment (R)” 0.48.
Under “RBNS enrichment (R)”, `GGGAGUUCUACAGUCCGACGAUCGCUACUCUCAUACAGGGGACCCGUAUUUUAAAAUCUCCAGACUUGCUUACAUCUAGAUUAUCCAGCACAAUCAUAAAGUGAAUGACAAACCCUUUGAAUGAAAUUGUGGCUGGAAUUCUCGGGUGCCAA` is recorded as 0.737.
`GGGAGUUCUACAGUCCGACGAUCCUGAUGCUCUGUUACUAGAAUUACAAGGACCUGAUUUUUUUGUUUCUUUGUUUUUUUUAAAAAAAACAAAAACAGAGGCCAGAACUAUUGUUUGAAAUUAGUAACAAUGCUGGAAUUCUCGGGUGCCAA`: “RBNS enrichment (R)” 0.442.
`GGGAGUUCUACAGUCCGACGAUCUGUAUAAAAUAAAGUGUAGUUUACAAAAAAAAGAAACGUAAAAAAAAAAAACUACAUGCAAAACUGUAGGUAAUGAAAAUGAUGUAUUUUUUUCAUCUUUUUUUGUUAACUGGAAUUCUCGGGUGCCAA`: “RBNS enrichment (R)” 1.07.
For `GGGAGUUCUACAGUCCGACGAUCGGAGUGGAAGUGGCCAGACCAUUUAGACGGACAGGGUCCUCACCCUACCCCUUUCCUGUGAGGCAGGGGUGGUGGUGGAGUUGCUGGAGGUAGAGGAGCUAUGUGGAGCAUGGAAUUCUCGGGUGCCAA`, “RBNS enrichment (R)” read 1.25.
For `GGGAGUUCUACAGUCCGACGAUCUAAAAUCUCUGAAGGAUCAUCUAUGUAUUCAAGUAAUUAUUUUUUAGAUAAUAACUGUCUUCUGGACUUGGUCUUGAAGUCUGUACAGAUUCAGCCUCAGUAGUAGCGAAUGGAAUUCUCGGGUGCCAA`, “RBNS enrichment (R)” read 0.439.
